Assay results pooled from the literature.

Compound	system	conditions	AUC
COc1cc2ncnc(Oc3ccc(Nc4nccc5[nH]cc(-c6ccc(F)cc6)c(=O)c45)cc3F)c2cc1OC	mouse, athymic nude, U-87 MG xenograft	oral, 8.3 mg/kg, ED50 dose	271000 ng·h/mL
COC1C=COC2(C)Oc3c(C)c(O)c4c(c3C2=O)C2=NC3(CCN(CC(C)C)CC3)NC2=C(NC(=O)C(C)=CC=CC(C)C(O)C(C)C(O)C(C)C(OC(=O)Nc2cccnn2)C1C)C4=O (stereo not shown)	CD-1 mouse, plasma	oral, dose not given, efficacy dose	84200 ng·h/mL
CN[C@H](CC(C)C)C(=O)N[C@H]1C(=O)N[C@@H](CC(N)=O)C(=O)N[C@H]2C(=N)N[C@H]3C(=O)N[C@H](C(=O)N[C@H](C(=O)NCCC[N+](C)(C)C)c4cc(O)cc(O)c4-c4cc3ccc4O)[C@H](O)c3ccc(c(Cl)c3)Oc3cc2cc(c3O[C@@H]2O[C@H](CO)[C@@H](O)[C@H](O)[C@H]2O[C@H]2C[C@](C)(NCc3ccc(-c4ccc(Cl)cc4)cc3)[C@H](O)[C@H](C)O2)Oc2ccc(cc2Cl)[C@H]1O	mouse	intravenous, 50 mg/kg	714 µM·h
COC1C=COC2(C)Oc3c(C)c(O)c4c(c3C2=O)C2=NC3(CCN(CC(C)C)CC3)NC2=C(NC(=O)C(C)=CC=CC(C)C(O)C(C)C(O)C(C)C(OC(=O)Nc2cscn2)C1C)C4=O (stereo not shown)	CD-1 mouse, plasma	oral, 12.5 mg/kg, efficacy dose	40000 ng·h/mL
O=c1c(-c2cnn(-c3ccccc3)c2)c(C(F)(F)F)oc2c(O)c(O)ccc12	mouse	intraperitoneal, 100 mg/kg, DMSO vehicle	19.6 µM·h
CC(C)(O)Cn1nc(-c2ccccc2)c2c(Cl)c(-c3ccccc3)nnc21	mouse juvenile P20, plasma	intraperitoneal, 40 mg/kg	7.92 µM·h
CN[C@H](CC(C)C)C(=O)N[C@H]1C(=O)N[C@@H](CC(N)=O)C(=O)N[C@H]2CN[C@H]3C(=O)N[C@H](C(=O)N[C@H](C(=O)NCCCNC(=N)N)c4cc(O)cc(O)c4-c4cc3ccc4O)[C@H](O)c3ccc(c(Cl)c3)Oc3cc2cc(c3O[C@@H]2O[C@H](CO)[C@@H](O)[C@H](O)[C@H]2O[C@H]2C[C@](C)(NCc3ccc(-c4ccc(Cl)cc4)cc3)[C@H](O)[C@H](C)O2)Oc2ccc(cc2Cl)[C@H]1O	mouse	intravenous, 10 mg/kg	203 µM·h
COC1C=COC2(C)Oc3c(C)c(O)c4c(c3C2=O)C2=NC3(CCN(CC(C)C)CC3)NC2=C(NC(=O)C(C)=CC=CC(C)C(O)C(C)C(O)C(C)C(OC(=O)c2cccnc2)C1C)C4=O (stereo not shown)	CD-1 mouse, plasma	oral, dose not given, efficacy dose	133000 ng·h/mL
OCCn1nc(-c2ccccc2)c2c(Cl)c(-c3ccccc3)nnc21	mouse juvenile P20, plasma	intraperitoneal, 100 mg/kg	5.7 µM·h
O=S(=O)(N[C@H]1CCC[C@@H](N2c3ccccc3CCc3ccccc32)[C@@H]1O)c1ccc(OC(F)(F)F)cc1	mouse, plasma	oral, 100 mg/kg, suspension	7130 ng·h/mL

For quick reference, copied from above:
Compound	system	conditions	AUC
CC(C)(O)Cn1nc(-c2ccccc2)c2c(Cl)c(-c3ccccc3)nnc21	mouse juvenile P20, plasma	intraperitoneal, 40 mg/kg	7.92 µM·h
